Results collected from several papers.
Lines come from different studies, so protocols differ. “And” joins repeats or separate records; there may be more than shown. ± marks the error that the study gave.
gag-pol integrase: Gag-Pol polyprotein, integrase (gag-pol, Human immunodeficiency virus type 1 group M subtype B, UniProt P04585)
SLC6A19: Sodium-dependent neutral amino acid transporter B(0)AT1 (SLC6A19, Homo sapiens, UniProt Q695T7)
UniProt Q695T7, sequence (whole entry, looked up): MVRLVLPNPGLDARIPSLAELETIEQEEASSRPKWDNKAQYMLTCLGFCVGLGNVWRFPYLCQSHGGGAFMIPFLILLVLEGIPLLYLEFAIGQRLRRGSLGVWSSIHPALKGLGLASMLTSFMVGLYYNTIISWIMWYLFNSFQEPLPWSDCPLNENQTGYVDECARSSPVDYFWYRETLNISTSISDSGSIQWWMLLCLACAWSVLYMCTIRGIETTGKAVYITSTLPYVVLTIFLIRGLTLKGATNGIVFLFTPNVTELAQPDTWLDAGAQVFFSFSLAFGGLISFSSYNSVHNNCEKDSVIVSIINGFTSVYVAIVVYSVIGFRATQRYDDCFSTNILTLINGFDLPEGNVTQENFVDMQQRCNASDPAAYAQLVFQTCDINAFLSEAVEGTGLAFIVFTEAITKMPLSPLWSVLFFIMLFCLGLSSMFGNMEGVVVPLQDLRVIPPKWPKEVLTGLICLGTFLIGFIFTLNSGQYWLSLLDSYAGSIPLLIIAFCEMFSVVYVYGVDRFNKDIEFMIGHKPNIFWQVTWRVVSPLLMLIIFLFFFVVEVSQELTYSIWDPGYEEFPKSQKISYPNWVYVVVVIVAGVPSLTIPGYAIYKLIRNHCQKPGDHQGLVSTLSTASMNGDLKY
UniProt P05164, sequence (whole entry, looked up): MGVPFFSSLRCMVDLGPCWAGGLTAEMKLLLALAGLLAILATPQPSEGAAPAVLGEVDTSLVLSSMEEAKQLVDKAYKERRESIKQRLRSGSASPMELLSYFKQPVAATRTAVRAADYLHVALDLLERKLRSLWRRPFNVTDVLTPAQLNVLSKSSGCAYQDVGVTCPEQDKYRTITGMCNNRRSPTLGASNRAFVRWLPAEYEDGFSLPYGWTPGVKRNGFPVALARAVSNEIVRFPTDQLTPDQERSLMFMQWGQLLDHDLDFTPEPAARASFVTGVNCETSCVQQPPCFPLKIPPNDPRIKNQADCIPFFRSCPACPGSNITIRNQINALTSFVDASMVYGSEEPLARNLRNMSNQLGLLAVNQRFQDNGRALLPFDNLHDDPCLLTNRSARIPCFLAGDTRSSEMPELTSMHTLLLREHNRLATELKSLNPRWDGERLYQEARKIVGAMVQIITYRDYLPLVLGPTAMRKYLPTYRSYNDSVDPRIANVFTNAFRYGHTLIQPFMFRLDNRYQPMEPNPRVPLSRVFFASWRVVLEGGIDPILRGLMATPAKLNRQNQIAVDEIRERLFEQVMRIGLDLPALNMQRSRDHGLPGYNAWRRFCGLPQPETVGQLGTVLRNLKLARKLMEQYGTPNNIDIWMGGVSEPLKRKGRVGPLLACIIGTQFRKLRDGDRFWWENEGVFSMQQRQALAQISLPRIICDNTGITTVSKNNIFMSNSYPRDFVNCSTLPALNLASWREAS
UniProt O75582, sequence (whole entry, looked up): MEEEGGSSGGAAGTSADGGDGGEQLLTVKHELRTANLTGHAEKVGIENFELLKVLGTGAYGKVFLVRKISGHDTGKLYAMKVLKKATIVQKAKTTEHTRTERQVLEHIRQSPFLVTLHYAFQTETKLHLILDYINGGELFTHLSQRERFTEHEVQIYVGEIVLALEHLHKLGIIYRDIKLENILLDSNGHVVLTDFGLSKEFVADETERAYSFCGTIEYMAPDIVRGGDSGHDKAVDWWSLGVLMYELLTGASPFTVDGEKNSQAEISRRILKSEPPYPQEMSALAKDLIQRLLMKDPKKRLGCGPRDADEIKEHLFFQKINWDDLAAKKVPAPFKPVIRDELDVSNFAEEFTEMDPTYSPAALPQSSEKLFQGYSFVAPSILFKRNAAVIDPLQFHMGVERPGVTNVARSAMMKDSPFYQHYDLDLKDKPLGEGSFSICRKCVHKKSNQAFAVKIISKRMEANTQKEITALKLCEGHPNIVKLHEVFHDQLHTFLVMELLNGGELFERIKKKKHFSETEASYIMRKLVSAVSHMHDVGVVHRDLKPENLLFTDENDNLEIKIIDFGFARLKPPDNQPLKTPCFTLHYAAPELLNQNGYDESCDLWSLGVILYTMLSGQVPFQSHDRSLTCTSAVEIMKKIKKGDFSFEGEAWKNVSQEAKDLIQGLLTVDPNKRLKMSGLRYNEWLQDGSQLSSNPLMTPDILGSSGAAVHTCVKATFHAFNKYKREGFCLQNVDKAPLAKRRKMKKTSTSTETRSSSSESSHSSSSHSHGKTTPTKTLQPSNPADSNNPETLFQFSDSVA
UniProt P48067, sequence (whole entry, unmodified, looked up): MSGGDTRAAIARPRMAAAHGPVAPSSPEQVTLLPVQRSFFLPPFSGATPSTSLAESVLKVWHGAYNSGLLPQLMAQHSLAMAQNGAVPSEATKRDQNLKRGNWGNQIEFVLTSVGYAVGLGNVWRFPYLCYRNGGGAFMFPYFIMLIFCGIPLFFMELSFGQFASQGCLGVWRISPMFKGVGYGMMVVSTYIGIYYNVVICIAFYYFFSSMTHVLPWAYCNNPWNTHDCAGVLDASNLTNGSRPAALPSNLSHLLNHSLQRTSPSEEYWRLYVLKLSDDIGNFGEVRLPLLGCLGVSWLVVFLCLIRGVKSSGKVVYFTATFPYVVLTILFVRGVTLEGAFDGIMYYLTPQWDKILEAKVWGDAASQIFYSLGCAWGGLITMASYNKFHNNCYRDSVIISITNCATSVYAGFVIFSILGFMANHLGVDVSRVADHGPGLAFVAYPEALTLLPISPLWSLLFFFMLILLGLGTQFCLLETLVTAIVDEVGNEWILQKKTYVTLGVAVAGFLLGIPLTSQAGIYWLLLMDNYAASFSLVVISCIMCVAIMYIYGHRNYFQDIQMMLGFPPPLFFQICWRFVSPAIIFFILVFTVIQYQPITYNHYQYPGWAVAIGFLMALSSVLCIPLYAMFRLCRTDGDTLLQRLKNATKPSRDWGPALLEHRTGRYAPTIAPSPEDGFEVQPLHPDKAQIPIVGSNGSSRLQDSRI
UniProt Q9H792, sequence (whole entry, looked up): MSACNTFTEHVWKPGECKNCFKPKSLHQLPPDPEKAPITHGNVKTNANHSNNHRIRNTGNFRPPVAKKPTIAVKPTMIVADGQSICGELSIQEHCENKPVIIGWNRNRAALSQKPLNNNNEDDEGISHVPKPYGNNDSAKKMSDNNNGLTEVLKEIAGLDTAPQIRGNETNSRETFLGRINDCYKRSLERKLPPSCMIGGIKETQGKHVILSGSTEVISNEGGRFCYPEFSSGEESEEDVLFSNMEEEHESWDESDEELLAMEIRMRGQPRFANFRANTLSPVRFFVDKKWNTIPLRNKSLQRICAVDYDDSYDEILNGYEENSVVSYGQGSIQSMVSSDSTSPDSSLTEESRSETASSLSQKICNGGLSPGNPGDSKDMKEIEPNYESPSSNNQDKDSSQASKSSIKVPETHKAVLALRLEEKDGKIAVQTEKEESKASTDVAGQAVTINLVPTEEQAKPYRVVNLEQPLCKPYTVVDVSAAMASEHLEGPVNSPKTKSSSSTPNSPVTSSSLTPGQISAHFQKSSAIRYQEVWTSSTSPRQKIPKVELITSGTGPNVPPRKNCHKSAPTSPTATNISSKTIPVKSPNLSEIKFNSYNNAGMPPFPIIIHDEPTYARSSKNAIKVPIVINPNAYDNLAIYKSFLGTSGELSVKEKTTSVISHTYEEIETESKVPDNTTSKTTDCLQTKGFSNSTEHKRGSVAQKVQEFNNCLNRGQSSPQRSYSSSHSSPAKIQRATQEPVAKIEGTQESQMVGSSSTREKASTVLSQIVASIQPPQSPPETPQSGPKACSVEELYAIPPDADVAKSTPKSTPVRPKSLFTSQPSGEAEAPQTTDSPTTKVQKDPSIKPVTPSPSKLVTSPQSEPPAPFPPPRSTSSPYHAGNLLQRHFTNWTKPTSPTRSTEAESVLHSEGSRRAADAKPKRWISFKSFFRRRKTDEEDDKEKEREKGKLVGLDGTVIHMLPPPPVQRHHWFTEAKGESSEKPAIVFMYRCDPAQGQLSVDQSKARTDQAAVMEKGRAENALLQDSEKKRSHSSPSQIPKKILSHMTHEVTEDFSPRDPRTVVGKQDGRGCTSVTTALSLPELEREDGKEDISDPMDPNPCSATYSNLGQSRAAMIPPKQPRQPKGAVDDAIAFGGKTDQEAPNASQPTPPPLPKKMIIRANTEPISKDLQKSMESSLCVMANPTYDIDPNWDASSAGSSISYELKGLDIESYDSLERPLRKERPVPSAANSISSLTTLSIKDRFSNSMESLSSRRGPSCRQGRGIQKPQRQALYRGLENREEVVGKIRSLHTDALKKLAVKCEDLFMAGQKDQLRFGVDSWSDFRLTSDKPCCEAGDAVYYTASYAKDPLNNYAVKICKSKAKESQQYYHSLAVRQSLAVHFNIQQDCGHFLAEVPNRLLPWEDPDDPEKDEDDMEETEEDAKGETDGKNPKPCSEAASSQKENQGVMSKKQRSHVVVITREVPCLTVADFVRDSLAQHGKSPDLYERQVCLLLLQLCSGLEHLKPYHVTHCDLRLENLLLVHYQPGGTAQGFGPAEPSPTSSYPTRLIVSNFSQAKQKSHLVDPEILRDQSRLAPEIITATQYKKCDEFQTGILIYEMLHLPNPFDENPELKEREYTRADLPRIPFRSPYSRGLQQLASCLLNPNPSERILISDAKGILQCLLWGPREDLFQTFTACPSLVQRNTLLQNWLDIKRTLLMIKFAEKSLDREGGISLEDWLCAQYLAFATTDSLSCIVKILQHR
UniProt Q9BUB5, sequence (whole entry, looked up): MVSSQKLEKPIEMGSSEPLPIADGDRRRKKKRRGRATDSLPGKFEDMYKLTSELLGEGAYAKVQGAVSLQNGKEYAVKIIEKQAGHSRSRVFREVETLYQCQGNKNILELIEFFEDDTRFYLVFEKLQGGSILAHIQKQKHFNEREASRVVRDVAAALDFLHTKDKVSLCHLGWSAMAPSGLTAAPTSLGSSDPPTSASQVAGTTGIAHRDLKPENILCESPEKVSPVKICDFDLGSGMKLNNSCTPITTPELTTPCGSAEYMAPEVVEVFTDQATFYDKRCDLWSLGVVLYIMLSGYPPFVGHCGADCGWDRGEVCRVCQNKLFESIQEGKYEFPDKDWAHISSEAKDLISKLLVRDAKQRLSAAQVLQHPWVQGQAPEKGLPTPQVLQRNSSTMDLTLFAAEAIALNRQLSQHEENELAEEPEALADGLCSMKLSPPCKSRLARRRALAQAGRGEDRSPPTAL

The remaining activity of `COc1ccc(-c2ccc3c(-c4ccccc4)cn(C)c3n2)cc1` is reported as 60.7% (gag-pol integrase; strand transfer; HIV-1; 10 µM).
With `C=CC(=O)N1CCC[C@@H](n2nc(-c3ccc(Oc4ccccc4)cc3)c3c(N)ncnc32)C1` the remaining activity was 73.9 ± 0.3% (PEAK1 (Homo sapiens, UniProt Q9H792); kinase activity, inhibitor, HotSpot radiometric; 100 nM, with: ATP 10 µM).
`Cn1cc(-c2ccc3c(c2)OCO3)c2ccc(-c3ccncc3)nc21` has a remaining activity of 28.7% (gag-pol integrase; strand transfer; HIV-1; 10 µM).
For `O=C(O)c1ccc(Nc2ncc3c(n2)-c2ccc(Cl)cc2C(c2c(F)cccc2F)=NC3)cc1`, the remaining activity was 109% (GRK5(h); kinase activity; 1 µM).
For `Cc1cccc(C)c1C(=O)OCC(=O)[C@H](CCCCN)NC(=O)[C@H](CCCNC(=N)N)NC(=O)OCc1ccccc1`, the remaining activity was 100% (Procathepsin L (Mus musculus, UniProt P06797); inhibitor; 10 µM, with: AMC fluorogenic substrate; reference: untreated).
The remaining activity of `COc1cc(Nc2ncc3c(n2)-c2ccc(Cl)cc2C(c2c(F)cccc2OC)=NC3)ccc1C(=O)O` is reported as 97% (DAPK3; kinase activity; 1 µM).
`Cc1cc(Nc2cc(N3CCN(C)CC3)nc(Sc3ccc(NC(=O)C4CC4)cc3)n2)[nH]n1` gave a remaining activity of 99% (MLCK human; kinase activity; 0.03 µM; reference: control).
`O=C1NC(=O)/C(=C/c2ccc(-c3ccc(F)cc3O)o2)S1` has a remaining activity of 48% (MKNK1 (Homo sapiens, UniProt Q9BUB5); enzyme activity; 10 µM).
For `Cn1cc(-c2ccccc2)c2ccc(Cl)nc21`, the remaining activity was 85.6% (gag-pol integrase; strand transfer; HIV-1; 10 µM).
For `COc1cc(F)ccc1-c1ncnc(Nc2cccc(C[S@](C)(=N)=O)c2)n1`, the remaining activity was 102% (DAPK3 (Homo sapiens, UniProt O43293); kinase activity; 10 µM, with: 10 µM ATP).
`O=C(NC1CCC1)c1ccc2nc(-c3cccc(NS(=O)(=O)NCCN4CCCCC4)c3)cn2c1` gave a remaining activity of 100% (NEK3 (Homo sapiens, UniProt P51956); enzyme activity; 10 µM).
`Cc1cc(NC(=O)c2cccc(NC(=O)/C=C/CN(C)C)c2)ccc1Nc1nccc(-c2cccnc2)n1` gave a remaining activity of 1.04 (MAPK8 (Homo sapiens, UniProt P45983); enzyme activity, inhibitor; 8.36e-05 µM, 0 h, unit not given, with: GSH 10 mM pre-incubation; reference: vehicle).
With `Cc1cc(OCC(=O)NC(C)C)cc(C)c1Cl` the remaining activity was 0.549 and 0.683 and 0.666 and 0.583 (SLC6A19; FLIPR membrane potential; CHO-BC; 30 µM, unit not given; reference: uninhibited).
The remaining activity of `Cn1cc(-c2ccc3c(c2)OCO3)c2ccc(Cl)nc21` is reported as 46% (gag-pol integrase; strand transfer; HIV-1; 10 µM).
`Nc1ncnc2c1ncn2C1OC(CSCCNCc2cccc(-c3ccccc3)c2)C(O)C1O` (centres unmarked) has a remaining activity of 54.7% (N6-adenosine-methyltransferase catalytic subunit, with METTL14 (METTL3, Homo sapiens, UniProt Q86U44); 10 µM).
`COc1cc(-c2cncc3c2CN(C)Cc2cc(N4CCNCC4)ccc2-3)cc(OC)c1OC` has a remaining activity of 114% (RPS6KA5 (Homo sapiens, UniProt O75582); kinase activity; 1 µM, human enzyme, with: ATP 10 µM; reference: DMSO control).
With `COc1ccc(F)cc1C(=O)NCc1ccc(-c2nn([C@@H](C)C(F)(F)F)c(N)c2C(N)=O)cc1` the remaining activity was 85 ± 1% (HCK (Homo sapiens, UniProt P08631); kinase activity, inhibitor, HotSpot radiometric; 100 nM, with: ATP 10 µM).
The remaining activity of `NC/C(=C\F)COc1cccc(Cn2c(=S)[nH]c(=O)c3[nH]cnc32)c1` is reported as 2.53% and 1.1% and 6.25% (Myeloperoxidase (MPO, Homo sapiens, UniProt P05164); enzyme activity, inhibitor, dilution jump; concentration not given; reference: DMSO).
The remaining activity of `COc1cc(N2CCN(C)CC2)ccc1Nc1nc(N)n(C(=S)NCc2c(Cl)cccc2Cl)n1` is reported as 25% (Ribosomal protein S6 kinase alpha-5, C-terminal kinase domain (RPS6KA5, Homo sapiens, UniProt O75582); enzyme activity; 10 µM; reference: control).
With `C[C@@H](Oc1ccc(S(C)(=O)=O)cc1C(=O)N1C[C@@H]2C[C@]2(c2cc(C(F)(F)F)on2)C1)C(F)(F)F` the remaining activity was 95.8% (SLC6A9 (Homo sapiens, UniProt P48067, G373S); glycine uptake, inhibitor, [3H]glycine uptake; 0.005 µM, G319S mutant, log concentration 5, with: [3H]glycine; reference: no inhibitor).
With `C=CC(=O)N1CCC[C@@H](n2nc(-c3ccc(Oc4ccccc4)cc3)c3c(N)ncnc32)C1` the remaining activity was 153% (FER (Homo sapiens, UniProt P16591); 1 µM).
The remaining activity of `Cc1cc(Cl)cc(C)c1OCC(=O)NC(C)C` is reported as 83.7% (SLC6A19; FLIPR membrane potential; CHO-BC; concentration not given; reference: 100 µM cinromide set to 0).
With `CC(C)C(=O)Nc1n[nH]c2cc(-c3cccc(NS(=O)(=O)C4CC4)c3)ccc12` the remaining activity was 102% (PIP5K1C (Homo sapiens, UniProt O60331); ADP-Glo; 13.7 nM; reference: DMSO).
`CNc1ncc2c(/C=C/C(=O)N3CCC(OC)CC3)nn(Cc3cccc(C(F)(F)F)c3)c2n1` gave a remaining activity of 98% (CLK4 (Homo sapiens, UniProt Q9HAZ1); kinase activity, inhibitor; 1 µM; reference: untreated control).
With `Cc1nnc(C(=O)NC(C)(C)c2nc(C(=O)NCc3ccc(F)cc3)c(O)c(=O)n2C)o1` the remaining activity was 17.9% (gag-pol integrase; strand transfer; HIV-1; 10 µM).
For `CC(C)Oc1cc(N2CCN(C)CC2)ccc1Nc1nc(N)n(C(=O)NCc2ccccc2S(=O)(=O)C(C)C)n1`, the remaining activity was 34% (HIPK4 (Homo sapiens, UniProt Q8NE63); enzyme activity; 10 µM; reference: control).

For quick reference, copied from above:
`Nc1ncnc2c1ncn2C1OC(CSCCNCc2cccc(-c3ccccc3)c2)C(O)C1O` (centres unmarked) has a remaining activity of 54.7% (N6-adenosine-methyltransferase catalytic subunit, with METTL14 (METTL3, Homo sapiens, UniProt Q86U44); 10 µM).
With `C=CC(=O)N1CCC[C@@H](n2nc(-c3ccc(Oc4ccccc4)cc3)c3c(N)ncnc32)C1` the remaining activity was 73.9 ± 0.3% (PEAK1 (Homo sapiens, UniProt Q9H792); kinase activity, inhibitor, HotSpot radiometric; 100 nM, with: ATP 10 µM).
